Measured values gathered from unrelated publications.
Every numbered part comes from another study and shows a few of its results, in no order.

Sample 1
Target: Sal-like protein 4, full length isoform B (SALL4, Homo sapiens, UniProt Q9UJQ4-2, residues 1-616)
Technique: universal PBM
Molecule type: double-stranded DNA, one strand shown
Medium: in vitro
Tested at: not given
Notes: 8-mer, flanks averaged, mean of replicates
Direction: higher = stronger binding
Endpoint: E-score
Residues (chain): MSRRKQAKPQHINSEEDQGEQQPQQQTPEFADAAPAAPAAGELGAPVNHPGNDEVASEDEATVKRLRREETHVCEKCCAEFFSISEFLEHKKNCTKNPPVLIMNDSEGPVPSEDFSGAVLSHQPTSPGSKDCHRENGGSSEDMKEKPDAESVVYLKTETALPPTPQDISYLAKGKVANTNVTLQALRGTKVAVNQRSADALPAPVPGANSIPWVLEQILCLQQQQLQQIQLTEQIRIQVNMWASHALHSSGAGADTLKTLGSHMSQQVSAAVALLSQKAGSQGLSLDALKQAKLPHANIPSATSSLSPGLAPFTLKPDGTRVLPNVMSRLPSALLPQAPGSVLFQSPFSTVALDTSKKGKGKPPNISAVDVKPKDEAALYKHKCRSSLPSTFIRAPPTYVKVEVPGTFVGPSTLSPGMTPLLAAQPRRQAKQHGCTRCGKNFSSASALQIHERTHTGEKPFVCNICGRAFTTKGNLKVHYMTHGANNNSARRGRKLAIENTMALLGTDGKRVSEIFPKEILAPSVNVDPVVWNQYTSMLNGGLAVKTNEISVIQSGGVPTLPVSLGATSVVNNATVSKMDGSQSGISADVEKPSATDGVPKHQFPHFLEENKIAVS
ACGTAGGC: -0.115
AACAAACG: 0.00618
AAAGTCGC: 0.0869
ACACCTAA: 0.149
ATCTTAAA: 0.12
ACATTGCT: 0.178
GACTTACA: 0.0577
AGGCGTAA: 0.0218
GTACAGAC: 0.158
CGGACTAA: -0.135
CCATTTAG: -0.0708
CGGTAGCC: -0.31
AATTTCGG: 0.0843
AATTTGCG: 0.0641
CCGATGCC: -0.181
AGCCTACC: -0.166
CCATAAAG: 0.11
AAATTCTT: 0.204
CCTGCAAC: -0.0477
AATGTAAT: 0.315
CGTCGCGA: -0.24

Sample 2
Target: RNA binding protein fox-1 homolog 2, RRM domain, GST-SBP tag (RBFOX2, Homo sapiens, UniProt O43251-10, residues 100-194)
Technique: RNA Bind-n-Seq
Molecule type: RNA
Medium: in vitro
Tested at: 365 nM
Notes: natural RNA segment, single round, ends assumed
Reference: no-protein control
Direction: higher = stronger binding
Endpoint: RBNS enrichment (R)
Target sequence (chain): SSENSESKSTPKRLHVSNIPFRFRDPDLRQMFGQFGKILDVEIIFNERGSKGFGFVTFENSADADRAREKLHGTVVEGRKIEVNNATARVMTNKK
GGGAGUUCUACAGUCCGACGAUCAUUGAUGGGCUGGGGAACCCUGGAGAGCCUCGACUCCGGAAGUCUCAAGGUGCCUCCUCCUCUCCUUAGCUGGCCCGUUGGUUUUCUGAGCAGGGGGCUGAACUGUGAACUGGAAUUCUCGGGUGCCAA: 0.228
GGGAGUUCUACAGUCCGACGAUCAACAGAAGAGAGAAGGAGGCAGGGAGAUGUAUUUCUUAGGGCUCACCCCUUCACAGACUGACAGAAUGGUUUUGUUUUGUUUUGUUUUGUUUUGUUUUGUUUUUGAGAUGUGGAAUUCUCGGGUGCCAA: 0.526
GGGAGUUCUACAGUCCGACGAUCCUGAAACCUCUCAGCUGUUGAUCUCACAGCAGCUAAAGGGUUGUGCCAAACAUUUUAUUAAGAAAGUAAAGCCCAGAUUUGAAUGGGGGUUUUCCCUAGGCCUUAUAGUAUGGAAUUCUCGGGUGCCAA: 0.968
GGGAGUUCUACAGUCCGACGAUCUAGGAGGUAUAAUAUAUAUUUCUUGAGUAAUAAUGUGGUUACGGAAUUCCAAUGUUAUAGUGAAGUGUAAUGAAAAACAUCUCUAGGAAUGUGCUUUAACCACUGCUGCAUGGAAUUCUCGGGUGCCAA: 1.63
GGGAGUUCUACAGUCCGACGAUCACUGUGCGUCUCCUGCCUUGUCGUUCGGUAAUGAGACUAGAAAGAGAUACACUGUAAAGGAGGGGGAAGGGAAGGGUUGACCAGUUGGGUUUUUUGCGUCCUUUUGGAAUUGGAAUUCUCGGGUGCCAA: 1.46
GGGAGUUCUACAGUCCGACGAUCUUAAAACAGCAAGAUAAUAGUUCUUUGAUACUUUGAGAGGCGCUUUGAUGACCCUCAUCCAAGUCUAUGACACUUUCCUAUGGUUUUCUGUAUUCUAUGUCUGGAUGGAGUGGAAUUCUCGGGUGCCAA: 0.322
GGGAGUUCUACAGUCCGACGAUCAUUCCCAGUUCCUCCAGUGCCAGUACUUUAGCUUGGCCUAGCCCCAGUCUCAGGAACUGUUGUGGUGCCCCUGAGCCCACAGUCAUCUCCAGAGUCCACCUGGAAGCCUGUGGAAUUCUCGGGUGCCAA: 0.322
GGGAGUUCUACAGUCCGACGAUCGUGCCCUACGCCUCACUGCUGGGGCCCUGGACCCAGACCCAGGCAGGAGGGCCGACGGGUGCCUCGGUCGCUCUGGGGGCAGUUUAGAUGCUGUGAAAUUAAACCCGUUCUGGAAUUCUCGGGUGCCAA: 0.366
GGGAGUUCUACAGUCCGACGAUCUCGGUCCCUGCAGCUAAUGCUCGAAGACCUUCUGGGCUCCUCGUGGCACUAGGCCCUUCACCUUGACUGUGUGCAUGCAUGACCUGCAAUAGAGCCCACCAACCACAUAGUGGAAUUCUCGGGUGCCAA: 2.4
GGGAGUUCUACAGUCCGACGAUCAGCCCCUCUCGGGGACUCUGGGGGUGCCAUCCCCCACUCUUCUUCCAGCCACUCUCGGGCCCCACUCCCACAUCAUCUCAGAAACCCUUCAGCCCUCGCAACUCGCCCCUUGGAAUUCUCGGGUGCCAA: 0.956
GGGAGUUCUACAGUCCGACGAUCAAUUCUUUAAAAUUCACUAAUGAUUGAGGUCCAUAUUUAGUGGUACUCUGAAAUUGGUCACUUUCCUAUUACACGGAGUGUGCUAAAACUAAAAAGCAUUUUGAAACAUAUGGAAUUCUCGGGUGCCAA: 0.609
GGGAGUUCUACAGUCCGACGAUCUCUUCCAUGUUUGAGGGAAAGUCUUGCACUAUUGCAUAUAUUUUGGGGACACAGAUUUUCAUAGUUUCCAUUUUUGGGGGGCUUAAGGAUUUUUUUUUUUUCUGUUUGAAUGGAAUUCUCGGGUGCCAA: 2.69

Sample 3
Target: Histone acetyltransferase KAT6A, winged helix 2, GST fusion (KAT6A, Homo sapiens, UniProt Q92794, residues 85-181)
Technique: protein binding microarray
Molecule type: double-stranded DNA, one strand shown
Medium: in vitro
Tested at: not given
Notes: 8-mer, flanks averaged, mean of 2 arrays, mostly near background
Reference: not given
Direction: higher = stronger binding
Endpoint: E-score
Residues (chain): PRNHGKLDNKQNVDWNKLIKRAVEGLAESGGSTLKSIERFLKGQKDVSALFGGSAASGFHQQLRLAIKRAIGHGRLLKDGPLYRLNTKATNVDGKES
TAGTGGGA: -0.037
ATGGGAAA: -0.111
ACGTATGG: -0.198
TCCATCGA: 0.0456
CACTGGTA: -0.124
GAGTTTTA: 0.108
CGTGCCTC: 0.0827
CGAGAGAC: -0.152
ACCCCATG: -0.0323
GATCGTTA: -0.223
CTTTTACA: 0.0151
CAGATGAA: -0.11
CCATAACG: -0.0944
ACATGGCG: -0.167
CTTGCAAC: 0.0161
AGCTGGGA: -0.0465
AGTGAGAA: 0.191
AATATAAT: -0.089
ATTCTGAC: 0.0353
ATGAGTAG: -0.13
AGCAGGCG: 0.203
GCGACCCC: -0.0136
AGCCGGGA: 0.162
AGCAGACG: 0.00988
ATCCCGGC: 0.138

Sample 4
Target: Phosphate system positive regulatory protein PHO4, full length, GST-tagged (PHO4, Saccharomyces cerevisiae, UniProt P07270, residues 1-312)
Technique: competition protein-binding microarray
Molecule type: double-stranded DNA, one strand shown
Medium: in vitro
Tested at: 2 µM
Notes: whole 60-bp probe, lowest competitor level
Together with: Cbf1 competitor, 0.05 µM
Direction: higher = stronger binding
Endpoint: fluorescence intensity
Target sequence (chain): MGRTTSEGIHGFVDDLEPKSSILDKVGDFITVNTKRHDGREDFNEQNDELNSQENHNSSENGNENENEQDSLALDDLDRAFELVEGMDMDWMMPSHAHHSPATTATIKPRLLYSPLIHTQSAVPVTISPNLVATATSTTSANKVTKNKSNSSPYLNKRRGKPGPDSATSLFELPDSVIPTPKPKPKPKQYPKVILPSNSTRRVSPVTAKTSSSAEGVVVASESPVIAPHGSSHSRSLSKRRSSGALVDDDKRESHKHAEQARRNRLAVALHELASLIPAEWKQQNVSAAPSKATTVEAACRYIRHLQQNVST
ACCCCGCTTCCACCGCCGTTGTTGTTGTTGTTGTTGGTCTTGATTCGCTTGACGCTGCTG: 2960 a.u.
TTCCGCAATAGCCAACACGTGTGGAGGAACTTCAAGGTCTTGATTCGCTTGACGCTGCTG: 17600 a.u.
CTTTCCCGATCTTGTCGTGTGGGTGTAGCACATTTGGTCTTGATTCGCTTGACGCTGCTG: 5990 a.u.
TGCGCAACAACTTTTCACGTGGCTTTATGTCTAGAAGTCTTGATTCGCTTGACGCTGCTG: 15200 a.u.
CCCCTGTGCGGCTACGTCGTGCCGACCCACCATTTGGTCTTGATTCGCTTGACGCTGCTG: 8510 a.u.
AAAGCGGTAATTTGTGCAGTGGGTGCAGATATCTATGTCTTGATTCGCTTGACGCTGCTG: 4630 a.u.
CGTCCTAGTGATTGTCACGCCACTTCCATGAGGAAGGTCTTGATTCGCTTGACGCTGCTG: 6970 a.u.
ACAGGACTTCCAGGACACGTTTCTGGATTCATCCCTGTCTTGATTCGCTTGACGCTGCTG: 12800 a.u.
AAATTACTAAGTTGACAAGTGGGTGACGCCGTATGAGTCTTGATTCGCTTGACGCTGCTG: 4010 a.u.
GTCTTGTCTCATTGAATGGTGGGTGTCCCCACTTCAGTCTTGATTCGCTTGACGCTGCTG: 4710 a.u.
AAAGCGGTAATTTGTTCCGTGGGTGCAGATATCTATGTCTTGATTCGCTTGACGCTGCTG: 4960 a.u.
GGCTTCTTGAGTGTAAACGTGAGCCCTGTAATCTCAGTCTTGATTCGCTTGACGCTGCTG: 8670 a.u.
TGCGCAACAACTTGGGCCGTGGGTGTATGTCTAGAAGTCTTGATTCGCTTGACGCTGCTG: 6490 a.u.
AAATTACTAAGTTGTTTTGTGGGTGACGCCGTATGAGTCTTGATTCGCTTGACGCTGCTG: 3990 a.u.
CCGCGGATGATTTCTCACGTTTATCTGAAGAGGACTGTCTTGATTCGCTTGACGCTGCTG: 9310 a.u.
CCATGTTACATAATCTTCGTGCCAGTCTAATTCGTAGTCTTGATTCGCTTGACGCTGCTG: 6760 a.u.
TTTCAGGTTCTTGTACACGTGGAACCGCCCGATATAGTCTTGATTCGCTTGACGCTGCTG: 15000 a.u.
GGCCTTAACGGCAGCATCGTGGATTAACTTGGATTTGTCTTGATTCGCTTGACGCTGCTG: 8270 a.u.
ACCGAGGACCAGGCCCATGTGGCAGAGTAGCTGCTGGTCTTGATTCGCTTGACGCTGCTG: 11300 a.u.
AAGAAATATTGCCAACACGTGAGATTGAAAAAGCAAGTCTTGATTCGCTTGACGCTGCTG: 14100 a.u.
CTTGTTAATCTTATCCATGTGGAATCCCCACCACCAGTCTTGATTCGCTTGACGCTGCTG: 8110 a.u.
CACCGATTGCGTAATCTCCTGTACACGGTTCAAGAAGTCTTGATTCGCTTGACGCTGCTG: 4770 a.u.
CGGGGTTAAGTTTGTTGCGTGGGTGGCTTGCAGCAGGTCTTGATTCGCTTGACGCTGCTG: 6810 a.u.
CTTTGAAAAGCTGCCAACGTGACAAAACGTTCTGATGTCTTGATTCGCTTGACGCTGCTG: 13400 a.u.
GTCTTGTCTCATTGATCTGTGGGTGTCCCCACTTCAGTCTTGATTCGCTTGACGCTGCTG: 5090 a.u.

Repeated from above (sample 3):
ATGAGTAG: -0.13
CGAGAGAC: -0.152
GCGACCCC: -0.0136
AGCTGGGA: -0.0465
CCATAACG: -0.0944
TAGTGGGA: -0.037
